Measured values from different studies.
Lines come from different studies, so protocols differ. ± marks the error that the study gave.

With `CC(C)Cc1ccc(C(C)C(=O)NN=Cc2ccc(OCC(=O)NN=Cc3cccc([N+](=O)[O-])c3)cc2)cc1` (centres unmarked) the IC50 was 35.73 ± 0.09 µM (U87 MG; cytotoxicity, MTT).
`O=c1[nH]c2ccccc2nc1/C=C/c1ccccc1Br` gave an IC50 of over 50 µM (HeLa 229; cell growth or viability, MTT; 72 h).
For `O=C(/C=C/c1ccc(O)cc1)c1ccccc1`, the IC50 was 24 µM (human cells; NF-κB reporter gene, inhibitor; with: TNF-alpha).
`CC1=C2[O][Ru-]([Cl])[O+]=C2C=CN1CCCCCCCCCCCCN1C=CC2=[O+][Ru-]([Cl])[O]C2=C1C.Cc1ccc(C(C)C)cc1.Cc1ccc(C(C)C)cc1` gave an IC50 of 6 µM (RT-4; cell growth or viability, crystal violet; 96 h).
For `CC(C)(C)OC(=O)N[C@@H](Cc1c[nH]c2ccccc12)C(=O)OC1CC2(C)C(CC(O)C3C(C4(C)CCCC(C)(C)O4)CCC32C)C2(C)CCC(O)C(C)(C)C12` (some centres unmarked), the IC50 was 1.25 ± 0.16 µM (Hep3B; HRE reporter gene, inhibitor; 24 h, hypoxia).
`Oc1cccc2[nH]c(/C(=N/OCc3ccccc3)c3cc4cccc(O)c4o3)nc12` has an IC50 of 31.4 µM (NCI-H358; cell growth or viability, ATP luminescence; 72 h).
The IC50 of `COc1cc(CN2CCN(c3ccccc3Cl)CC2)c2cc3[n+](cc2c1O)CCc1cc2c(cc1-3)OCO2` is reported as 4.35 µg/mL (Ca-Ski; cell growth or viability, SRB; 48 h).
The IC50 of `CC(=O)NCCCN(C)CCCNc1cccc2c1C(=O)c1cccc(NCCCN(C)CCCNC(C)=O)c1C2=O` is reported as 0.5 µM (SAS; cell growth or viability, CCK-8; 48 h).
For `C#CCOc1ccc(-c2n(CC(=O)O[C@@H]3C[C@H](C)CC[C@H]3C(C)C)c3ccccc3[n+]2C)cc1N=[N+]=[N-]`, the IC50 was 0.35 µM (HTS; cell growth or viability, ATP luminescence; 96 h).
`COc1cc(N2CCN(C)CC2)ccc1Nc1ncc2c(n1)N(C)c1ccc(C)cc1C(=O)N2CC(F)(F)F` has an IC50 of over 20 µM (PaTu 8902; cell growth or viability; 5 days).
`COc1cc(OC)c(-c2coc3c(CC=C(C)C)c(OC)cc(O)c3c2=O)cc1OC` has an IC50 of over 100 µM (Huh-7; cell growth or viability, MTT; 24 h).
With `O=C(/C=C(O)/C=C/c1cccs1)/C=C/c1cccs1` the IC50 was 43.7 µM (EA.hy 926; cell growth or viability, MTT; 72 h).
For `O=C(NNc1nc(-c2ccccc2)cs1)c1cc2c(ccc3ccccc32)oc1=O`, the IC50 was 96.6 µM (EA.hy 926; cell growth or viability, SRB; 72 h).
For `CC1(C)CCCC(C)(C2CCC3(C)C2C(O)CC2C4(C)CCC(OC(=O)c5cn(-c6ccccc6)nn5)C(C)(C)C4C(OC(=O)c4cn(-c5ccccc5)nn4)CC23C)O1` (centres unmarked), the IC50 was over 30 µM (Hep3B; HRE reporter gene, inhibitor; 24 h, hypoxia).
`c1n[nH]cc1-c1nc2ccc3[nH]ncc3c2c2c1CCCC2` gave an IC50 of 0.0615 µM (MOLM-14; cell growth or viability, resazurin; 72 h).
`CC(C)=CCc1c2c(c(O)c3c(=O)c(-c4ccc(O)cc4)coc13)C=CC(C)(C)O2` has an IC50 of 16.3 µM (Huh-7; cell growth or viability, MTT; 24 h).
`CCCC[C@@H]1NC(=O)CN(S(C)(=O)=O)CCNC(=O)[C@H](CCCCN)NC(=O)[C@H](CC(C)C)NC(=O)[C@H](CCCCN)NC(=O)[C@H](CC(C)C)NC(=O)[C@H](CCCCN)NC(=O)CN(S(C)(=O)=O)CCNC(=O)[C@H](Cc2c[nH]c3ccccc23)NC(=O)[C@H](Cc2ccc(O)cc2)NC(=O)[C@H](C(C)C)NC(=O)[C@H](C(C)C)NC1=O` gave an IC50 of 2.9 µM (NCI-H929; viability, TO-PRO-3 staining, flow cytometry).
`CC1(C)CCCC(C)(C2CCC3(C)C2C(O)CC2C4(C)CCC(OC(=O)/C=C\c5ccccc5)C(C)(C)C4C(O)CC23C)O1` (centres unmarked) has an IC50 of over 30 µM (Hep3B; HRE reporter gene, inhibitor; 24 h, hypoxia).
`C=C(C)[C@@H]1CC[C@]2(C(=O)O)CC[C@]3(C)[C@H](CC[C@@H]4[C@@]5(C)CC[C@H](O[C@@H]6O[C@@H](C)[C@H](O)[C@@H](O)[C@H]6O)C(C)(C)[C@@H]5CC[C@]43C)[C@@H]12` has an IC50 of 2.5 µM (DLD-1; cell growth or viability, fluorescence; 48 h).
For `CC[C@H](C(=O)N1CCCC[C@H]1C(=O)O[C@H](CCc1ccc(OC)c(OC)c1)c1cccc(OCC(=O)NCCOCCOCCN(C)C/C=C/C(=O)Nc2cc3c(Nc4ccc(F)c(Cl)c4)ncnc3cc2OC)c1)c1cc(OC)c(OC)c(OC)c1`, the IC50 was 1.26 µM (NCI-H1975 expressing FKBP12F36V-PTPN2; cell viability, CellTiter-Glo; 6 days).
`COc1cc2c(cc1C(C)(C)O)CCC1C(C)(C)c3nc(C)ncc3C[C@]21C` (mixture of isomers) has an IC50 of 112 µM (HAF fibroblasts; cell growth, SRB; 24 h).
`COc1ccc(-n2cc(C(=O)OC3CC4(C)C(CC(O)C5C(C6(C)CCCC(C)(C)O6)CCC54C)C4(C)CCC(OC(=O)c5cn(-c6ccc(OC)cc6)nn5)C(C)(C)C34)nn2)cc1` (centres unmarked) has an IC50 of over 30 µM (Hep3B; HRE reporter gene, inhibitor; 24 h, hypoxia).
The IC50 of `CC(=O)N[C@@H](CCCNC(=N)N)C(=O)N[C@H](CC(=O)N[C@@H](Cc1ccccc1)C(N)=O)c1cccc2ccccc12` is reported as 9.75 ± 0.33 µM (SK-BR-3 (HER2-overexpressing)).
`COc1cc(CN2CCN(c3ccc(OC(F)(F)F)cc3)CC2)c2cc3[n+](cc2c1O)CCc1cc2c(cc1-3)OCO2` gave an IC50 of 4.98 µg/mL (Ca-Ski; cell growth or viability, SRB; 48 h).
For `Cc1c(OCc2ccccc2)c(=O)ccn1CCCOC(=O)c1ccc(Br)cc1`, the IC50 was 71 µg/mL (fibroblast cells; cell viability, MTT; 48 h).
For `COc1ccc(N2C(=O)C=CC2=O)cc1`, the IC50 was 12.5 µg/mL (HT-22; cell growth or viability, MTT; 24 h).
The IC50 of `Oc1ccc(C(=NNc2ccccc2)c2ccc(O)cc2)cc1` is reported as 37.6 µM (NCI-H358; cell growth or viability, ATP luminescence; 72 h).
`COc1ccc2nc(NC(=O)c3ccc(C(N)c4ccccc4)cc3)sc2c1` (centres unmarked) gave an IC50 of over 10 µM (NSCLC cell lines; cell viability; eight other cell lines).
`CCCc1nc2ccccn2c1Nc1ccc(C(=O)NO)cc1` gave an IC50 of 3.87 µM (CAL-27; cell growth or viability, MTT).
The IC50 of `C=CC(=O)N1CCCC(n2c(=O)c3ncccc3n(Cc3ccc(Oc4ccccc4)cc3)c2=O)C1` (centres unmarked) is reported as 0.5 µM (RPMI-8226 bortezomib-resistant; cell proliferation, MTT; 72 h).
The IC50 of `Cc1ccn2c(Nc3ccc(C(=O)NO)cc3)cnc2c1` is reported as 8.13 µM (CAL-27; HDAC activity, inhibitor, whole-cell).
`CCCC[C@@H]1NC(=O)CN(S(C)(=O)=O)CCNC(=O)[C@H](CCCCN)NC(=O)[C@H](CC(C)C)NC(=O)[C@H](CCCCN)NC(=O)[C@H](CCC(N)=O)NC(=O)[C@H](CCCCN)NC(=O)COC[C@H]2CCCN2C(=O)[C@H](Cc2c[nH]c3ccccc23)NC(=O)[C@H](C)NC(=O)[C@H](C(C)C)NC(=O)[C@H](C(C)C)NC1=O` gave an IC50 of 24.8 µM (NCI-H929; viability, TO-PRO-3 staining, flow cytometry).
`CCC(C)C1OC(=O)C(C)(C)C(=O)C(Cc2ccccc2)OC(=O)C(C(C)C)OC(=O)C(NC(=O)c2cccc(O)c2)C(C)OC1=O` (centres unmarked) gave an IC50 of 9.13 ± 0.189 µM (PC-9/GR gefitinib-resistant; cell viability, CCK-8; 72 h).
`CN1CCCC1CCO/N=C1/C=C2CCC3C(CC[C@]4(C)/C(=C/c5ccccn5)CCC34)[C@@]2(C)CC1` (some centres unmarked) gave an IC50 of 21.9 µM (CEM; cytotoxicity, alamarBlue; 72 h).
For `COc1ccc(-n2cc(C(=O)OC3CCC4(C)C(C(O)CC5(C)C4CC(O)C4C(C6(C)CCCC(C)(C)O6)CCC45C)C3(C)C)nn2)cc1` (centres unmarked), the IC50 was 0.33 ± 0.1 µM (Hep3B; HRE reporter gene, inhibitor; 24 h, hypoxia).
`Clc1ccc(C=[N+]2N=C(Nc3ccccc3)[S][Pt-]2([Cl])[Cl])s1` gave an IC50 of 12.6 µM (MDCK; cell proliferation).
`C[N+]1(C)CC[NH2+][Pt-2]1([OH])([Cl])([Cl])[O]C(=O)CCC(=O)OCCOC(=O)CCC(=O)[O][Pt-2]1([OH])([Cl])([Cl])[NH2+]CC[N+]1(C)C` gave an IC50 of 137 ± 6 µM (P31; cell viability, EZ4U; 96 h).
`C[C@]12CC/C(=N\OCCN3CCCCC3)C=C1CCC1C2CC[C@]2(C)/C(=C/c3ccccn3)CCC12` (some centres unmarked) gave an IC50 of 18 µM (CEM; cytotoxicity, alamarBlue; 72 h).
`Cc1ccc(NC(=O)c2c(C)oc3ccc(O)c(CN4CCCCCC4)c23)cc1` gave an IC50 of 14.1 ± 1.3 µM (JIM1; cell viability, MTS; 72 h).
For `C1=[N+]2CCCC[N+]3=Cc4ccc5[n]4[Au-]23[n]2c1ccc2-c1nc2ccccc2nc1-5.F[P-](F)(F)(F)(F)F`, the IC50 was 10 µM (colon cancer cell lines; NCI60 panel mean).
`COc1cc(CC(=O)N2CC(=O)N[C@@H](Cc3ccccc3)CN(C(=O)Cc3ccc4ccccc4c3)CC(=O)N[C@@H](CCCCN)CN(C(=O)Cc3ccc4c(c3)OCO4)CC(=O)N[C@@H](CCCCN)CN(CC(N)=O)C(=O)CCSCc3ccc(cc3)C(=O)N[C@@H](CC(C)C)C2)cc(OC)c1` has an IC50 of 10.6 µM (SK-BR-3; western blot, measured: phospho-ERK; 4 h).
The IC50 of `C=CC(OC(C)=O)c1ccc(OC(C)=O)c(OC)c1` (centres unmarked) is reported as over 50 µM (HMEC; MTT; 24 h).
`COc1ccc(C(c2c[nH]c3ccccc23)c2c[nH]c3ccccc23)cc1` gave an IC50 of 5.31 µM (B16; cell growth or viability, MTT; 24 h).
`Clc1ccc(C=[N+]2N=C(Nc3ccccc3)[S][Pd-]2([Cl])[Cl])s1` gave an IC50 of over 100 µM (MDCK; cell proliferation).
For `O=[N+]([O-])c1ccc(/N=N/c2ccc(O)c(O)c2)cc1`, the IC50 was 2.65 µM (HPNE; cell growth or viability, resazurin; 72 h).
`O=C1/C(=C(\O)CCc2ccccc2)C(=O)[C@@]2(C(=O)OCc3ccccc3)CS[C@H](c3ccccc3)N12` has an IC50 of 31.3 µg/mL (MDCK; cell growth or viability, resazurin).
The IC50 of `CC(C)(C)OC(=O)N[C@@H](Cc1c[nH]c2ccccc12)C(=O)OC1CCC2(C)C(C(O)CC3(C)C2CC(O)C2C(C4(C)CCCC(C)(C)O4)CCC23C)C1(C)C` (some centres unmarked) is reported as 4.89 ± 0.12 µM (Hep3B; HRE reporter gene, inhibitor; 24 h, hypoxia).
`O=C(OCc1cccc(O)c1O)c1ccc(O)c(CO)c1` gave an IC50 of 0.24 µM (COS-phox cells; superoxide production, lucigenin chemiluminescence; with: PMA).
For `CC(C)[C@@H]1CC[C@@H](C)C[C@H]1OC(=O)Cn1c(-c2cccc(C(F)(F)F)c2)[n+](C)c2ccccc21`, the IC50 was 0.47 µM (HTS; cell growth or viability, ATP luminescence; 96 h).
The IC50 of `C=C1C(=O)OC2C1CCC1(C)CC1CCC1(C)OC21` (centres unmarked) is reported as 6.4 ± 2.1 µM (B117H murine AML, cytarabine-resistant; cell growth, inhibitor).

Repeated from above:
`Oc1cccc2[nH]c(/C(=N/OCc3ccccc3)c3cc4cccc(O)c4o3)nc12` has an IC50 of 31.4 µM (NCI-H358; cell growth or viability, ATP luminescence; 72 h).
The IC50 of `COc1cc(CN2CCN(c3ccccc3Cl)CC2)c2cc3[n+](cc2c1O)CCc1cc2c(cc1-3)OCO2` is reported as 4.35 µg/mL (Ca-Ski; cell growth or viability, SRB; 48 h).
The IC50 of `CC(=O)NCCCN(C)CCCNc1cccc2c1C(=O)c1cccc(NCCCN(C)CCCNC(C)=O)c1C2=O` is reported as 0.5 µM (SAS; cell growth or viability, CCK-8; 48 h).
For `C#CCOc1ccc(-c2n(CC(=O)O[C@@H]3C[C@H](C)CC[C@H]3C(C)C)c3ccccc3[n+]2C)cc1N=[N+]=[N-]`, the IC50 was 0.35 µM (HTS; cell growth or viability, ATP luminescence; 96 h).
`COc1cc(N2CCN(C)CC2)ccc1Nc1ncc2c(n1)N(C)c1ccc(C)cc1C(=O)N2CC(F)(F)F` has an IC50 of over 20 µM (PaTu 8902; cell growth or viability; 5 days).
`COc1cc(OC)c(-c2coc3c(CC=C(C)C)c(OC)cc(O)c3c2=O)cc1OC` has an IC50 of over 100 µM (Huh-7; cell growth or viability, MTT; 24 h).
With `O=C(/C=C(O)/C=C/c1cccs1)/C=C/c1cccs1` the IC50 was 43.7 µM (EA.hy 926; cell growth or viability, MTT; 72 h).
For `O=C(NNc1nc(-c2ccccc2)cs1)c1cc2c(ccc3ccccc32)oc1=O`, the IC50 was 96.6 µM (EA.hy 926; cell growth or viability, SRB; 72 h).
